Measured values pooled from the literature.
A part holds a random share of what one study measured. Changes are numbered by the printed parent chain.

Study 1
Target: RNA binding protein fox-1 homolog 2, RRM domain, GST-SBP tag (RBFOX2, Homo sapiens, UniProt O43251-10, residues 100-194)
Technique: RNA Bind-n-Seq
Form: RNA
Medium: in vitro
Tested at: 365 nM
Notes: natural RNA segment, single round, ends assumed
Baseline: no-protein control
Direction: higher = stronger binding
Measurement: RBNS enrichment (R)
All sequences stand within: GGGAGUUCUACAGUCCGACGAUC … UGGAAUUCUCGGGUGCCAA
Oligonucleotide = AGGGCAUUUCAAAGUAAUUUUGCCAAAAUUGUCAUAACUGAAUUUUUGCUGUGUGGACUUUCUGAUUUUUUUUUAAUUAUUUUUUUACCUCUAUCUACCAGCUUUAGUUG; result = 1.65
Oligonucleotide = UCAGCUCUGAAAGUCUAGGAAUAGUCUUUGUAACAUCUUAGCAGAUGUGUCCUUGUAUGCUGGUGGAUUCUUCUAGAAAGUAUUUUCUAUCUUGGUUGUAUUUGCUGCCA; result = 0.499
Oligonucleotide = AUCGGUUGGUCUUGCUAAUUGAAGCUCAGAAAAAUAUAGAUGGUCUCUCCCGACCCUGUUUGUGGUGUGUGCUGGCCUAUCAGGAUCUGGUUAGCCUUUGGAAUUUUUGU; result = 1.02
Oligonucleotide = CAGCCACCUUCCUCACAGGGACUAGGAGGCUCAGUCCCCAACGGCUGGCAAGACUCAGGGUCCUCAGUGGACAUGGUGUGGGUGACAUCAGAAGGGUGCCACAUCAGUCC; result = 0.427
Oligonucleotide = AAAGCUACAAAUAACACUUACUUUGAAUCCUGCUGUCAAAUGUCUGCAUCAAGAUAGCACCCCUUUGUGGGAGGCCCUGAGUAUCUUCUCUUCCUCUACUGCCUAACUGU; result = 0.885
Oligonucleotide = GUGGGAGAAGUGUGCACACCUUUGAGUCCCUUCCCUCAAGGUUAAAGCUCCUGUCAGACUCUCAGAAGGGUCUGUGGGUGUUGUAUAUUAGGCAAACAGGGGAAAGCUUA; result = 0.456
Oligonucleotide = GCUCUCAGCCCUGCAGAAACCACCUCUUCCUUUGUCUUUGAAUGCAACUCAUAGCCAAGGUGGUCUGAUCGUAGACAUUCCUUCCCUGCCCCAUGCGCUUGCCUCUCUCU; result = 4.44
Oligonucleotide = AUGUGAGGCACCGUUUUUCUCGUCGCUUGCCAAUCUGUUUUUUAAAGGAUCAGGCUCGUAGGGAGCAGGAUCAUGCCAGAAAUAGGGAUGGAAGUGCAUCCUCUGGGAAA; result = 0.374
Oligonucleotide = AAAAUCGUGGAUGAAUAGUUACUCUGGACAGGACUUUUGACAUGUCUUGCUCUGUGGAAUUUUGUGCUUACUACUGUAUAGUGCAUGUGGCUUAGGUUACCCUAGCUGGU; result = 2.03
Oligonucleotide = CCAAGUAAGGUGUAAGGUUGCAUGUUUCAGUCCUCUACCAUCCUGCACUGUGAGCAGCACUAUACCUGUGCGUUGUCUGAAAGCCUUCCGUAUAUUCUCCAGCUAAAUGG; result = 12
Oligonucleotide = UUCCAAACUUAAGAAAAUAUUUACUUCUGAUACCCCUGCUGAGGAAAGCGGUCAACUGGAAACUAAAUGGAGCAGCAGCUCCUCUCUGUGGCCAGGGCAUCAGACACAGG; result = 0.496
Oligonucleotide = CUAACCCUAAAUCUUGACAUCAGAAAGUGUUUGCACUGUAUAAACAAUGUUAGCUGAAAGCAUGUUUAUUUUUUAAGGAGCUCCUGCUCUUCUGCACAUUUCCAUAUCUA; result = 0.583

Study 2
Target: CCNA1, cyclin fold, Cln2 fusion (human)
Technique: yeast growth competition, sequencing
Medium: yeast
Notes: weak parent motif
Baseline: not given
Direction: higher = stronger binding
Measurement: normalised enrichment score
Starting sequence: E2F8 docking peptide (human); FVPQRKLEVSTED
Variant = FVPARKLEVSTED [Q4A]; result = 0.0706
Variant = FVPQRALEVSTED [K6A]; result = 0.305
Variant = FVPQAKLEVSTED [R5A]; result = 0.231
Variant = FVPQRKLEASTED [V9A]; result = 0.02
Variant = FVPQKKLELSTED [R5K V9L]; result = 0.201
Variant = FVPQRKAEVSTED [L7A]; result = 0.434
Variant = FVPQRKLAVSTED [E8A]; result = 0.133
Variant = FVPQKKLEFSTED [R5K V9F]; result = -0.169

Study 3
Target: Histone acetyltransferase KAT6A, both winged helices, GST fusion (KAT6A, Homo sapiens, UniProt Q92794, residues 1-181)
Technique: protein binding microarray
Form: double-stranded DNA, one strand shown
Medium: in vitro
Tested at: not given
Notes: 8-mer, flanks averaged, mean of 2 arrays, mostly near background
Baseline: not given
Direction: higher = stronger binding
Measurement: E-score
Residues (chain): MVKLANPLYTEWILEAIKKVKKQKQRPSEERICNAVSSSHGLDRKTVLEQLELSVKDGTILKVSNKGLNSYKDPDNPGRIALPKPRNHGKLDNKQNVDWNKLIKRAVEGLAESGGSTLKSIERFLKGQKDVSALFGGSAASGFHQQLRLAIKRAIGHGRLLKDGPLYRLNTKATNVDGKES
Oligonucleotide = GATGGGTA; result = -0.16
Oligonucleotide = AGAAGAAC; result = -0.0789
Oligonucleotide = CTAACTGA; result = -0.0271
Oligonucleotide = GAAGCGTC; result = 0.125
Oligonucleotide = CTATGGGC; result = -0.149
Oligonucleotide = AGGGAACA; result = -0.0865
Oligonucleotide = CCAGTTCA; result = -0.00179
Oligonucleotide = GTATGCAA; result = -0.0957
Oligonucleotide = CGGCAGAC; result = 0.207
Oligonucleotide = GCAATGGC; result = -0.035
Oligonucleotide = ATAGGTTC; result = -0.0616
Oligonucleotide = CATCTCCA; result = -0.0971
Oligonucleotide = AACTAGGC; result = -0.0474
Oligonucleotide = GGATAACC; result = 0.0807
Oligonucleotide = AGCCTCCG; result = -0.0515

Further values, each from its own experiment
Molecule = PhoQ, residues 284 288 289 292 302 303 SSTLSG; target = PhoP, residues 12 14 15 18 19 VHSCL (Escherichia coli, UniProt P23836); assay = Sort-seq, item: YFP reporter; test system = E. coli; conditions = PhoQ-PhoP variant library, with: 10 µM Mg2+; how to read = baseline: high Mg2+ state, higher = stronger signaling; measurement = fold induction; result = 3.18

A few entries again (study 3):
Oligonucleotide = GTATGCAA; result = -0.0957
Oligonucleotide = CATCTCCA; result = -0.0971
Oligonucleotide = AACTAGGC; result = -0.0474
